{"data": "Experimental data gathered from unrelated publications", "ESR1": "Estrogen receptor (ESR1, Homo sapiens, UniProt P03372)", "ESR2": "Estrogen receptor beta (ESR2, Homo sapiens, UniProt Q92731)", "ADORA1": "Adenosine receptor A1 (ADORA1, Homo sapiens, UniProt P30542)", "MTNR1A": "Melatonin receptor type 1A (MTNR1A, Homo sapiens, UniProt P48039)", "MC3R": "Melanocortin receptor 3 (MC3R, Homo sapiens, UniProt P41968)", "C3AR1": "C3a anaphylatoxin chemotactic receptor (C3AR1, Homo sapiens, UniProt Q16581)", "note": "Lines come from different studies, so protocols differ. ± marks the error that the study gave.", "UniProt P30542, sequence (whole entry, looked up)": "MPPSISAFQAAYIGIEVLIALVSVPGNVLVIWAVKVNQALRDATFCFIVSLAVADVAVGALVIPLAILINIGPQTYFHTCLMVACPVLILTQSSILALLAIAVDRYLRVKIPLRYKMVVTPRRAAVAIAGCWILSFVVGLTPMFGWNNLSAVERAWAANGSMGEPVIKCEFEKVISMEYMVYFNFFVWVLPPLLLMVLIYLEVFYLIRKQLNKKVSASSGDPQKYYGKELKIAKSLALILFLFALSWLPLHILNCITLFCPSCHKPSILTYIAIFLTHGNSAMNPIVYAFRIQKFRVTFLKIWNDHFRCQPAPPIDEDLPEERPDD", "UniProt P48039, sequence (whole entry, looked up)": "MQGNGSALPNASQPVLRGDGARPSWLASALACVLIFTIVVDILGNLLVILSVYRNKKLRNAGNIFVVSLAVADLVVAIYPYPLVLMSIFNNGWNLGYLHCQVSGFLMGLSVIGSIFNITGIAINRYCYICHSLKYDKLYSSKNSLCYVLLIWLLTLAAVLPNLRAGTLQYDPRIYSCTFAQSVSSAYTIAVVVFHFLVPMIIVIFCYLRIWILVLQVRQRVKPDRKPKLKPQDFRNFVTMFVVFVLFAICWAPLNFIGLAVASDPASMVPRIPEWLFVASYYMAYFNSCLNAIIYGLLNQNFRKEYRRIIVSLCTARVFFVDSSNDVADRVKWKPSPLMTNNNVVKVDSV", "UniProt Q16581, sequence (whole entry, looked up)": "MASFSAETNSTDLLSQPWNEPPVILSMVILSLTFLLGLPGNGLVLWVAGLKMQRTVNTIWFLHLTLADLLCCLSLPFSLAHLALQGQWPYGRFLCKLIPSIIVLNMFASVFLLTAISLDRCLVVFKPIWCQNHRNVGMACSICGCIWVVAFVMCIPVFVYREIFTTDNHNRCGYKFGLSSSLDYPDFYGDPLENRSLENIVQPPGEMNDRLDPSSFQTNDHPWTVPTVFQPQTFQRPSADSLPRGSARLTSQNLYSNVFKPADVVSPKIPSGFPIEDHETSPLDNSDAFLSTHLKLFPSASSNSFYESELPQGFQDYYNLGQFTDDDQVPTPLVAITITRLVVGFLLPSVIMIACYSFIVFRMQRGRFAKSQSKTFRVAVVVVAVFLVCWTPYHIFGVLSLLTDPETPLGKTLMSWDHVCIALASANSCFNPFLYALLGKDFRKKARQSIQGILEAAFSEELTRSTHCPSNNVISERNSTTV", "UniProt Q92731, sequence (whole entry, looked up)": "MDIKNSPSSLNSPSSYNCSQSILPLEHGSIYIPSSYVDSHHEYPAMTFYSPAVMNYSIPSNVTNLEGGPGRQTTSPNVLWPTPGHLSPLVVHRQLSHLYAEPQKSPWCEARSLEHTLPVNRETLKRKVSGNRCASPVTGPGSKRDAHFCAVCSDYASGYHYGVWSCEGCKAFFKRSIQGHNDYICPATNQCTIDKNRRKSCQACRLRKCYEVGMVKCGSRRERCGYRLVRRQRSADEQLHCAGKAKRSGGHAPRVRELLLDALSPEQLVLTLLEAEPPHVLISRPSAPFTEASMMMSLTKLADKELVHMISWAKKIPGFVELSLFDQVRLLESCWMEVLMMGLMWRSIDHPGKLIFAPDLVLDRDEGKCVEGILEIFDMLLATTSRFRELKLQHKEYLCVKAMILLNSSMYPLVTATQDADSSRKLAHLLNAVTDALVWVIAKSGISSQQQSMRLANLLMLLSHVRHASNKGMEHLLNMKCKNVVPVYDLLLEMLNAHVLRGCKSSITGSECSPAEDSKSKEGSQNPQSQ", "UniProt P41968, sequence (whole entry, looked up)": "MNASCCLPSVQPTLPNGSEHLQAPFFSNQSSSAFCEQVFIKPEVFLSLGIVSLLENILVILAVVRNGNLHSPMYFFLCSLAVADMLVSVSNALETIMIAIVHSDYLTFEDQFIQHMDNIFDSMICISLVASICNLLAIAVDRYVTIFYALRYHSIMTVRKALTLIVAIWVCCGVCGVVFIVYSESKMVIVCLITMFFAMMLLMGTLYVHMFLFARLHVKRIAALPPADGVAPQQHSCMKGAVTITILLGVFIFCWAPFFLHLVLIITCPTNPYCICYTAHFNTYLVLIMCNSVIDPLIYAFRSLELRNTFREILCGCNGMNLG", "UniProt P47870, sequence (whole entry, looked up)": "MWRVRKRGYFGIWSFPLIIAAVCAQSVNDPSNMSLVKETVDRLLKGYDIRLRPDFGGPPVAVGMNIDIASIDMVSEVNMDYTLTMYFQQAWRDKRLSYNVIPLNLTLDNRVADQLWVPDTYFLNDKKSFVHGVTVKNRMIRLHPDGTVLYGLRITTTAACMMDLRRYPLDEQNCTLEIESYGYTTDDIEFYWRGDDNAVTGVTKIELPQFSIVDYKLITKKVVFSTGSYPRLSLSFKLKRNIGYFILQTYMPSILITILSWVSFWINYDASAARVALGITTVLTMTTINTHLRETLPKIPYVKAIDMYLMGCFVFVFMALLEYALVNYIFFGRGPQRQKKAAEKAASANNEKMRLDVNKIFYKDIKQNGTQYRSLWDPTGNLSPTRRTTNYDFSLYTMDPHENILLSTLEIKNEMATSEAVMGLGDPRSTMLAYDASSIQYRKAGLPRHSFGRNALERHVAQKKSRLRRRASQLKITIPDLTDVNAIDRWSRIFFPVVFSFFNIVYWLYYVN", "UniProt P03372, sequence (whole entry, looked up)": "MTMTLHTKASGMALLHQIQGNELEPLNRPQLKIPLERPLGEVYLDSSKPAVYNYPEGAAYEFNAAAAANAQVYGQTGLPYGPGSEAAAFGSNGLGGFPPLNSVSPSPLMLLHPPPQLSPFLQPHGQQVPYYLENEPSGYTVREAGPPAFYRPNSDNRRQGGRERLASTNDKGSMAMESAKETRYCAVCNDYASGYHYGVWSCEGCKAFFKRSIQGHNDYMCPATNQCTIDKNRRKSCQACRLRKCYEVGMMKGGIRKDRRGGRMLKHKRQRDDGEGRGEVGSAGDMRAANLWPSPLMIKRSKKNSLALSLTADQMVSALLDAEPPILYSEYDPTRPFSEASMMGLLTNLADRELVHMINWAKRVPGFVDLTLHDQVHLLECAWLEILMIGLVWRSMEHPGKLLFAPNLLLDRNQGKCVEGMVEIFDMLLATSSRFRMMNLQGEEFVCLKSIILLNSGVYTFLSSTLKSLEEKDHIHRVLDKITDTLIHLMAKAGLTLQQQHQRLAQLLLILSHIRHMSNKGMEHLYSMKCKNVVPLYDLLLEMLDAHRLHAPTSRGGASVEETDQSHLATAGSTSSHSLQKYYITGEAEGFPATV", "UniProt O14764, sequence (whole entry, looked up)": "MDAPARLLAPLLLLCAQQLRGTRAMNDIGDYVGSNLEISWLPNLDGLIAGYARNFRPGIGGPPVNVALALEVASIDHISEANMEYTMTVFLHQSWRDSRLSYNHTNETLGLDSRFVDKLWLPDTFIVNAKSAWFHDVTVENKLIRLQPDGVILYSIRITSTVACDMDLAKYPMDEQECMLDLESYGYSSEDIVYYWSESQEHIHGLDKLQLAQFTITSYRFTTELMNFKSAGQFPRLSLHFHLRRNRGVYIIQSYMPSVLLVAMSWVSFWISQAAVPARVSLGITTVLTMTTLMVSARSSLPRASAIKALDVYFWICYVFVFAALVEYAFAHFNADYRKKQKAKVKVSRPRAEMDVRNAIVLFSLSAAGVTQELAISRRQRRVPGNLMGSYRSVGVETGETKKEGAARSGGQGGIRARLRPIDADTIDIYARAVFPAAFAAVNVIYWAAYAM", "UniProt P49685, sequence (whole entry, looked up)": "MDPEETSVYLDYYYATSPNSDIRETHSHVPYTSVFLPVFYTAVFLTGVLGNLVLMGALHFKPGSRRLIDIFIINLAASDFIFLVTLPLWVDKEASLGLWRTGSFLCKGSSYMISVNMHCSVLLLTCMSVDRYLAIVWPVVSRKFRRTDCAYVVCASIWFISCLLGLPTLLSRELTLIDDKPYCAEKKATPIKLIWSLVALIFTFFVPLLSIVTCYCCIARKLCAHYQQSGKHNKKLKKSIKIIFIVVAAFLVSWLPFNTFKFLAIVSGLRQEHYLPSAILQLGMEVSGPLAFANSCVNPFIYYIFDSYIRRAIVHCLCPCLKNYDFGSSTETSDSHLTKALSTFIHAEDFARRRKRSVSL", "UniProt P21462, sequence (whole entry, looked up)": "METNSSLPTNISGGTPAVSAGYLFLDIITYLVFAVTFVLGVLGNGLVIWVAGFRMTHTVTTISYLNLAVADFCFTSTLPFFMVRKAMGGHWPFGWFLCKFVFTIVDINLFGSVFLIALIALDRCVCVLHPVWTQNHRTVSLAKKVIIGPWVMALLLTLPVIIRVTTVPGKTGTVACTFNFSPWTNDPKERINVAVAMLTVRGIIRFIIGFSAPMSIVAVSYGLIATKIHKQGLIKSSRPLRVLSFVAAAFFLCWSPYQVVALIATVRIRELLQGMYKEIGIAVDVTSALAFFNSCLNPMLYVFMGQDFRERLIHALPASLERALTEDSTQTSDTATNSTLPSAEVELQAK", "UniProt Q92847, sequence (whole entry, looked up)": "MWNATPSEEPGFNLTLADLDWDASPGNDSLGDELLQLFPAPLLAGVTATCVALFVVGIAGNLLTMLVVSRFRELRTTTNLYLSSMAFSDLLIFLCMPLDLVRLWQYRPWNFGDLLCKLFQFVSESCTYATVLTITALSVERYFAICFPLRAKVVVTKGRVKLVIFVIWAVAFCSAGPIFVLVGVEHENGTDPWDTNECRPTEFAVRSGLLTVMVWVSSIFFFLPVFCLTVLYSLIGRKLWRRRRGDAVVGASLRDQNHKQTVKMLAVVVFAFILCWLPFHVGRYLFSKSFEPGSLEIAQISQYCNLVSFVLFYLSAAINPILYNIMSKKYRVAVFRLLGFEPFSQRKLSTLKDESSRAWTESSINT"}
{"SMILES": "COc1cc(/C=C2\\Cc3ccccc3C2=O)ccc1O", "target": "ESR1", "test": "coactivator recruitment, agonist", "EC50 [µM]": 2.36}
{"SMILES": "CC(C)C[C@@H]1NC(=O)[C@H](CCCNC(=N)N)NC(=O)[C@H](C(C)C)NC(=O)[C@H](Cc2c[nH]cn2)NC(=O)[C@H](Cc2c[nH]cn2)NC(=O)CNC(=O)[C@H](CCCCN)NC(=O)[C@H](CC(C)C)NC(=O)[C@H](CC(N)=O)NC(=O)[C@H]([C@@H](C)O)NC(=O)[C@H](CO)NC(=O)[C@H](CC(N)=O)NC(=O)[C@@H]2CCCN2C(=O)[C@H](CO)NC(=O)[C@@H]2CCCN2C(=O)[C@H](C(C)C)NC(=O)[C@H](CCCNC(=N)N)NC(=O)[C@H](Cc2c[nH]cn2)NC(=O)[C@@H]2CSSC[C@H](NC1=O)C(=O)N[C@@H](CCCCN)C(=O)N1CCC[C@H]1C(=O)N[C@H](C(=O)N[C@@H](CCCCN)C(=O)N[C@@H](CC(C)C)C(=O)N[C@@H](CCC(=O)O)C(=O)N1CCC[C@H]1C(=O)N[C@@H](CCC(=O)O)C(=O)N1CCC[C@H]1C(=O)N[C@@H](CCCNC(=N)N)C(=O)N[C@@H](CC(C)C)C(=O)N[C@@H](Cc1c[nH]c3ccccc13)C(=O)N[C@H](C(=O)N[C@H](C(=O)N1CCC[C@H]1C(=O)NCC(=O)N[C@@H](C)C(=O)N[C@@H](CC(C)C)C(=O)N1CCC[C@H]1C(=O)N[C@@H](CCC(N)=O)C(=O)N[C@H](C(=O)O)C(C)C)C(C)C)C(C)C)CSSC[C@H](NC(=O)[C@H](CC(C)C)NC(=O)[C@H](CCCNC(=N)N)NC(=O)[C@@H](NC(=O)[C@H](CCCNC(=N)N)NC(=O)[C@H](CCCNC(=N)N)NC(=O)CNC(=O)[C@H](CO)NC(=O)[C@H](Cc1c[nH]c3ccccc13)NC(=O)[C@H](C)NC(=O)[C@H](CCCCN)NC(=O)[C@H](C)NC(=O)[C@@H]1CCCN1C(=O)[C@H](CCCNC(=N)N)NC(=O)[C@H](CCCNC(=N)N)NC(=O)[C@@H](N)CCCCN)[C@@H](C)O)C(=O)N2", "target": "G-protein coupled receptor 15, with Gi/o (Homo sapiens, UniProt P49685)", "test": "cAMP inhibition, agonist, HTRF", "system": "HEK293A stably expressing GPR15", "conditions": "added: forskolin", "EC50 [µM]": 0.011}
{"SMILES": "O=C(O)CN(CC(=O)O)[C@@H](CCCCNC(=O)CCCC(=O)NCCOCCOCCOCCOCCC(=O)NCCCNCC(O)c1cccc(O)c1)C(=O)O (stereo partly drawn)", "target": "ADRB2 (Homo sapiens, UniProt P07550)", "test": "calcium response, agonist", "system": "HEK-293T with Gα15", "EC50 [µM]": 1.3}
{"SMILES": "COc1ccc(OC)c(COC(=O)c2ccc(O)cc2)c1", "target": "ESR2", "test": "coactivator recruitment, agonist", "EC50 [µM]": 1.13}
{"SMILES": "O=C(NCc1ccsc1)N1CCN(C(Cc2cccc(O)c2)c2ccccc2)CC1 (stereo not drawn)", "target": "OPRM1 (Homo sapiens, UniProt P35372)", "test": "cAMP, agonist", "system": "CHO-K1", "EC50 [µM]": 0.0014}
{"SMILES": "C=CCc1cccc(-c2cc(/C=C/C(=O)O)ccc2O)c1", "target": "Retinoic acid receptor RXR-alpha, with NURR1 (RXRA, Homo sapiens, UniProt P19793)", "EC50 [µM]": 0.00251}
{"SMILES": "CCNC(=O)[C@H]1O[C@@H](n2cnc3c(NCCCNC(=O)CCCCCNC(=O)COc4ccc(/C=C/C5=[N+]6C(=Cc7ccc(-c8cccs8)n7[B-]6(F)F)C=C5)cc4)ncnc32)[C@H](O)[C@@H]1O", "target": "ADORA1", "test": "CRE-SPAP reporter gene, agonist", "system": "CHO-A1", "conditions": "Gs enhancement, added: forskolin, pertussis toxin 100 ng/mL overnight", "EC50 [µM]": 0.24}
{"SMILES": "N=C(N)NCCC[C@H](NC(=O)[C@H](Cc1ccccc1)NC(=O)[C@@H](N)CO)C(=O)N[C@@H](CC(N)=O)C(=O)NCC(N)=O", "target": "Neuropeptide S receptor (Mus musculus, UniProt Q8BZP8)", "test": "calcium signal, agonist", "EC50 [µM]": 1.01}
{"SMILES": "CCNC(=O)[C@H]1O[C@@H](n2cnc3c(NCCCCNS(=O)(=O)c4cccc5c(N(C)C)cccc45)ncnc32)[C@H](O)[C@@H]1O", "target": "ADORA1", "test": "reporter gene, agonist", "EC50 [µM]": "> 10"}
{"SMILES": "CSCC[C@H](NC=O)C(=O)N[C@@H](CC(C)C)C(=O)N[C@@H](Cc1ccccc1)C(=O)N[C@@H](Cc1ccccc1)C(=O)O", "target": "FPR1 (Homo sapiens, UniProt P21462)", "test": "binding, competitor", "system": "U-937", "conditions": "4 °C, added: 5 nM WK(FL)YMVm", "EC50 [µM]": "0.001 ± 0.0006"}
{"SMILES": "CCCC[C@H](NC(=O)[C@H](CO)NC(=O)[C@H](Cc1ccc(O)cc1)NC(=O)[C@H](CO)NC(C)=O)C(=O)N[C@@H](CCC(=O)O)C(=O)N[C@@H](Cc1c[nH]cn1)C(=O)N[C@H](Cc1ccccc1)C(=O)N[C@@H](CCCNC(=N)N)C(=O)N[C@@H](Cc1c[nH]c2ccccc12)C(=O)NCC(=O)N[C@@H](CCCCN)C(=O)N1CCC[C@H]1C(=O)N[C@H](C(=O)NCC(=O)N[C@@H](CCCCN)C(=O)N[C@@H](CCCCN)C(=O)N[C@@H](CCCNC(=N)N)C(N)=O)C(C)C", "target": "MC1R (Homo sapiens, UniProt Q01726, M128L)", "test": "cAMP, agonist", "EC50 [µM]": 0.00071}
{"SMILES": "CC/C(=C(\\c1ccccc1)c1ccc(OCCN(C)CCCCCCC(=O)NCCCOc2ccc3[nH]cc(CCNC(C)=O)c3c2)cc1)c1ccccc1", "target": "MTNR1A", "test": "phosphorylation in cells, agonist, AlphaScreen", "EC50 [µM]": 0.098}
{"SMILES": "COc1ccc(C(C)C)c(CNc2cccnc2)c1", "target": "MTNR1A", "test": "cAMP, agonist, luciferase", "EC50 [µM]": "> 31.6"}
{"SMILES": "CC(C)C[C@H](NC(=O)[C@H](CC(C)C)NC(=O)[C@@H](Cc1ccc2ccccc2c1)NC(=O)[C@H](Cc1ccccc1)NC(=O)[C@@H](Cc1c[nH]c2ccccc12)NC(=O)[C@@H](N)CCCCN)C(N)=O", "target": "GHSR (Homo sapiens, UniProt Q92847)", "test": "inositol phosphate, agonist, TR-FRET", "EC50 [µM]": 0.229}
{"SMILES": "Cc1cc(N/C=C(\\C(=O)NC2CCC2)C(=O)c2ccc(Cl)cc2Cl)no1", "target": "GABA A receptor alpha-2/beta-2/gamma-2 (Homo sapiens, UniProt P18507+P47869+P47870)", "test": "GABA current potentiation, positive modulator, two-electrode voltage clamp", "system": "Xenopus laevis oocytes", "conditions": "30 s preincubation, added: GABA EC10", "EC50 [µM]": "0.018 ± 0.008"}
{"SMILES": "O=C(c1cc2c(s1)CCCCC2)N1CCC(n2c(=O)[nH]c3ccccc32)CC1", "target": "Trpc6 (Mus musculus, UniProt Q61143, E671C)", "test": "channel activation, agonist, whole-cell patch clamp", "EC50 [µM]": "6.63 ± 0.4"}
{"SMILES": "CC/C(=C(\\c1ccccc1)c1ccc(OCCN(C)CCCCC(=O)NCCc2c[nH]c3ccc(OC)cc23)cc1)c1ccccc1", "target": "MTNR1A", "test": "β-arrestin recruitment, agonist, BRET", "EC50 [µM]": 9.77}
{"SMILES": "N=C(N)NCCC[C@H](NC(=O)[C@H](CC(=O)O)NC(=O)[C@@H]1CSCCCC(=O)NCC(=O)N[C@@H](Cc2c[nH]cn2)C(=O)N[C@H](Cc2ccccc2)C(=O)N[C@@H](CCCNC(=N)N)C(=O)N[C@H](Cc2c[nH]c3ccccc23)C(=O)N1)C(=O)N[C@@H](Cc1ccccc1)C(=O)NCC(N)=O", "target": "MC3R", "test": "cAMP, agonist", "EC50 [µM]": 0.1}
{"SMILES": "CCc1ccccc1OS(=O)(=O)C1CC2OC1C(c1ccc(O)cc1)=C2c1ccc(O)cc1 (racemic)", "target": "ESR1", "test": "reporter gene, agonist, luciferase", "EC50 [µM]": 0.39}
{"SMILES": "N#CC(=Cc1ccc(O)cc1)c1ccc(Cl)cc1Cl", "target": "ESR2", "test": "coactivator recruitment, agonist", "EC50 [µM]": 0.13}
{"SMILES": "Cc1ccc(Oc2cc(C(=O)NCc3ccccn3)nc3ccsc23)cn1", "target": "CHRM1 (Homo sapiens, UniProt P11229)", "test": "positive allosteric modulator", "EC50 [µM]": "> 30"}
{"SMILES": "CC(C)C[C@H](NC(=O)[C@@H](N)[C@@H](C)O)C(=O)N[C@@H](CCC(N)=O)C(=O)N1CCC[C@H]1C(=O)N1CCC[C@H]1C(=O)N[C@@H](C)C(=O)N[C@@H](CO)C(=O)N[C@@H](CO)C(=O)N[C@@H](CCCNC(=N)N)C(=O)N[C@@H](CCCNC(=N)N)C(=O)N[C@@H](CCCNC(=N)N)C(=O)N[C@@H](Cc1c[nH]cn1)C(=O)N[C@@H](Cc1ccccc1)C(=O)N[C@@H](Cc1c[nH]cn1)C(=O)N[C@@H](Cc1c[nH]cn1)C(=O)N[C@@H](C)C(=O)N[C@@H](CC(C)C)C(=O)N1CCC[C@H]1C(=O)N1CCC[C@H]1C(=O)N[C@@H](C)C(=O)N[C@@H](CCCNC(=N)N)C(=O)O", "target": "C3AR1", "test": "cAMP, agonist, luciferase", "EC50 [µM]": 0.0104}
{"SMILES": "O=C(Nc1c(-c2cccs2)nc2ccccn12)c1ccc(Cl)cc1", "target": "Gamma-aminobutyric acid receptor subunit alpha-1/beta-2/delta (Homo sapiens, UniProt O14764+P14867+P47870)", "test": "positive allosteric modulator, FLIPR membrane potential", "system": "HEK293 Flp-In", "conditions": "added: GABA EC20", "EC50 [µM]": 2.97}
{"SMILES": "CC(C)C[C@H](NC(=O)CNC(=O)[C@H](CC(C)C)NC(=O)[C@H](CCCCN)NC(=O)[C@H](CO)NC(=O)[C@H](C)NC(=O)[C@H](CCCN=C(N)N)NC(=O)[C@H](Cc1ccc(O)cc1)NC(=O)[C@H](CCCCN)NC(=O)[C@H](CCCCN)NC(=O)CNC(=O)[C@H](Cc1c[nH]c2ccccc12)NC(=O)[C@@H](N)Cc1c[nH]c2ccccc12)C(=O)N[C@@H](C)C(=O)N[C@@H](CCCN=C(N)N)C(=O)O", "target": "C3AR1", "test": "G protein activation, agonist, BRET", "EC50 [µM]": 0.0083}
{"SMILES": "N=C(N)NCCC[C@H](NC(=O)[C@H](CC(=O)O)NC(=O)[C@@H]1CSCC(=O)NCC(=O)N[C@@H](Cc2c[nH]cn2)C(=O)N[C@H](Cc2ccccc2)C(=O)N[C@@H](CCCNC(=N)N)C(=O)N[C@@H](Cc2c[nH]c3ccccc23)C(=O)N1)C(=O)N[C@@H](Cc1ccccc1)C(=O)NCC(N)=O", "target": "MC3R", "test": "cAMP, agonist", "EC50 [µM]": 0.195}
{"SMILES": "CC(C)C[C@H](NC(=O)[C@H](C)NC(=O)[C@H](CO)NC(=O)[C@@H]1CCCN1C(=O)[C@@H]1CCCN1C(=O)[C@H](CCC(N)=O)NC(=O)[C@H](CC(C)C)NC(=O)[C@@H](N)[C@@H](C)O)C(=O)N[C@@H](CCCNC(=N)N)C(=O)N[C@@H](CCCNC(=N)N)C(=O)N[C@@H](CCCNC(=N)N)C(=O)N[C@@H](Cc1c[nH]cn1)C(=O)N[C@@H](Cc1ccc(O)cc1)C(=O)N[C@@H](Cc1c[nH]cn1)C(=O)N[C@@H](Cc1c[nH]cn1)C(=O)N[C@@H](C)C(=O)N[C@@H](CC(C)C)C(=O)N1CCC[C@H]1C(=O)N1CCC[C@H]1C(=O)N[C@@H](CO)C(=O)N[C@@H](CCCNC(=N)N)C(=O)O", "target": "C3AR1", "test": "G protein activation, agonist, BRET", "EC50 [µM]": 0.416}
{"SMILES": "CCNC(=O)[C@H]1O[C@@H](n2cnc3c(NCCCCCCCCNC(=O)CCCCCNC(=O)COc4ccc(/C=C/C5=[N+]6C(=Cc7ccc(-c8cccs8)n7[B-]6(F)F)C=C5)cc4)ncnc32)[C@H](O)[C@@H]1O", "target": "ADORA1", "test": "reporter gene, agonist", "EC50 [µM]": "> 10"}
{"note": "Some of these lines once more:"}
{"SMILES": "COc1ccc(OC)c(COC(=O)c2ccc(O)cc2)c1", "target": "ESR2", "test": "coactivator recruitment, agonist", "EC50 [µM]": 1.13}
{"SMILES": "O=C(NCc1ccsc1)N1CCN(C(Cc2cccc(O)c2)c2ccccc2)CC1 (stereo not drawn)", "target": "OPRM1 (Homo sapiens, UniProt P35372)", "test": "cAMP, agonist", "system": "CHO-K1", "EC50 [µM]": 0.0014}
